Results collected from several papers.
Lines come from different studies, so protocols differ. Numbers after ± are the reported error.

Structure (SMILES) | assay | test system | setting | scale | quantity | result
CCOc1ccc2c(c1)C(C)=CC(C)(C)N2 | LC-MS/MS | laying hens, muscle | oral, 50 mg/kg feed, 56 days | – | residue concentration | 9.2 ± 5.3 ng/g
Cc1nc(Nc2ncc(C(=O)Nc3c(C)cccc3Cl)s2)cc(N2CCN(CCO)CC2)n1 | – | male C57BL/6 mouse wild type, plasma | oral, 10 mg/kg | – | AUC(0-inf) | 442 ± 152 ng·h/mL
CC[C@H](C)[C@H](NC(=O)[C@H](Cc1ccccc1)NC(=O)[C@H](CCC(=O)O)NC(=O)[C@H](CCCCNC(=O)COCCOCCNC(=O)COCCOCCNC(=O)CC[C@H](NC(=O)CCCCCCCCCCCCCCCCC(=O)O)C(=O)O)NC(=O)[C@H](C)NC(=O)[C@H](C)NC(=O)[C@H](CCC(N)=O)NC(=O)CNC(=O)[C@H](CCC(=O)O)NC(=O)[C@H](CC(C)C)NC(=O)[C@H](Cc1ccc(O)cc1)NC(=O)[C@H](CO)NC(=O)[C@H](CO)NC(=O)[C@@H](NC(=O)[C@H](CC(=O)O)NC(=O)[C@H](CO)NC(=O)[C@@H](NC(=O)[C@H](Cc1ccccc1)NC(=O)[C@@H](NC(=O)CNC(=O)[C@H](CCC(=O)O)NC(=O)C(C)(C)NC(=O)[C@@H](N)Cc1cnc[nH]1)[C@@H](C)O)[C@@H](C)O)C(C)C)C(=O)N[C@@H](C)C(=O)N[C@@H](Cc1c[nH]c2ccccc12)C(=O)N[C@@H](CC(C)C)C(=O)N[C@H](C(=O)N[C@@H](CCCNC(=N)N)C(=O)NCC(=O)N[C@@H](CCCNC(=N)N)C(=O)NCC(=O)O)C(C)C | – | healthy Japanese subjects, plasma | subcutaneous, steady state, once weekly | relative to: 1.0 mg over 0.5 mg | AUC(0-168 h) ratio | 2.08
NCCCC[C@@H]1NC(=O)[C@@H](Cc2c[nH]c3ccccc23)NC(=O)[C@H](c2ccccc2)NC(=O)[C@@H]2C[C@@H](OC(=O)NCCN)CN2C(=O)[C@H](Cc2ccccc2)NC(=O)[C@H](Cc2ccc(OCc3ccccc3)cc2)NC1=O | radioimmunoassay | healthy human male volunteers, plasma | subcutaneous, 2.5 µg | – | alpha half-life | 2.6 ± 1.4 h
C[C@H]1O[C@@H](O[C@H]2[C@@H](O)C[C@H](O[C@H]3[C@@H](O)C[C@H](O[C@H]4CC[C@@]5(C)[C@H](CC[C@@H]6[C@@H]5C[C@@H](O)[C@]5(C)[C@@H](C7=CC(=O)OC7)CC[C@]65O)C4)O[C@@H]3C)O[C@@H]2C)C[C@H](O)[C@@H]1O | – | patients without P-gp inhibitors, spironolactone excluded, serum | oral | – | serum trough concentration | 1.26 ± 0.04 nmol/L
CCCC[C@H](NC(C)=O)C(=O)N[C@H]1CCC(=O)NC[C@@H](C(=O)N[C@@H](Cc2c[nH]c3ccccc23)C(N)=O)NC(=O)[C@H](CCCNC(=N)N)NC(=O)[C@@H](Cc2ccccc2)NC(=O)[C@H](Cc2c[nH]cn2)NC1=O | – | beagle dog, female, plasma | subcutaneous, 8.0 mg/kg daily, day 14 | – | Tmax | 0.63 h
C[C@@H]1O[C@@H](OC[C@H]2O[C@@H](Oc3c(-c4ccc(OCCO)c(OCCO)c4)oc4cc(OCCO)cc(O)c4c3=O)[C@H](O)[C@@H](O)[C@@H]2O)[C@H](O)[C@H](O)[C@H]1O | mitochondrial swelling | BALB/cByJ female mouse liver mitochondria | 30 min, together with: succinate + rotenone | relative to: CaCl2 maximal swelling | EC20 | > 400 µM
C[C@@]12C[C@@]3(O)O[C@@H](O1)[C@]1(COC(=O)c4ccccc4)[C@H]3C[C@@]12O[C@@H]1O[C@H](CO)[C@@H](O)[C@H](O)[C@H]1O | – | rat plasma QC samples | 45.0 ng/mL, 45 days, -80 °C, long-term stability, low QC | – | accuracy | 92.6 % nominal
CCCCCCCCCCCCCCC[C@H](O)[C@@H](N)CO | – | human, phase I, plasma | intravenous, 930 mg/m^2, day 1, monotherapy | – | AUC | 105 µM·h
CC(C)(Oc1ccc(C2CC2(Cl)Cl)cc1)C(=O)O (stereo not shown) | – | female Sprague-Dawley rat | oral, 7.5 mg/kg/day, 21 days | – | growth rate | no effect
CC[C@H](C)C(=O)O[C@H]1C[C@@H](C)C=C2C=C[C@H](C)[C@H](CC[C@@H]3C[C@@H](O)CC(=O)O3)[C@H]21 | cytochrome c release, ELISA | BALB/cByJ female mouse liver mitochondria | 30 min | relative to: alamethicin maximal release | EC20 | 118 µM
C=CC(=O)Nc1cc(Nc2nccc(-c3cn(C)c4ccccc34)n2)c(OC)cc1N(C)CCN(C)C | – | Sprague-Dawley rat, male, plasma | oral, 10 mg/kg, together with: avitinib 30 mg/kg daily for 7 days | – | apparent volume of distribution | 75.5 ± 27.5 L/kg
CC(=O)Oc1ccccc1C(=O)O | mitochondrial swelling | BALB/cByJ female mouse liver mitochondria | 30 min, together with: succinate + rotenone | relative to: CaCl2 maximal swelling | EC20 | > 800 µM
C=C[C@@H]1C[C@]1(NC(=O)[C@@H]1C[C@@H](Oc2ncc(OC)c3ccc(Cl)cc23)CN1C(=O)[C@@H](NC(=O)OC(C)(C)C)C(C)(C)C)C(=O)NS(=O)(=O)C1CC1 | – | human | oral, time-varying AST 115 U/L | relative to: median baseline AST | CL/F ratio | 0.74 fold
CC/C(=C(\c1ccccc1)c1ccc(OCCN(C)C)cc1)c1ccccc1 | mitochondrial swelling | BALB/cByJ female mouse liver mitochondria | 30 min, together with: succinate + rotenone | relative to: CaCl2 maximal swelling | EC20 | 9 µM
CN1CCN(c2ccc3nc(-c4c(N)c5c(F)cccc5[nH]c4=O)[nH]c3c2)CC1 | – | patients, plasma | oral, 300 mg, day 1, AUC 0-24 h median concurrent dosing, together with: gemcitabine and capecitabine | – | AUC | 3420 ng·h/mL

A few entries again:
Structure (SMILES) | assay | test system | setting | scale | quantity | result
C[C@@]12C[C@@]3(O)O[C@@H](O1)[C@]1(COC(=O)c4ccccc4)[C@H]3C[C@@]12O[C@@H]1O[C@H](CO)[C@@H](O)[C@H](O)[C@H]1O | – | rat plasma QC samples | 45.0 ng/mL, 45 days, -80 °C, long-term stability, low QC | – | accuracy | 92.6 % nominal
CCCCCCCCCCCCCCC[C@H](O)[C@@H](N)CO | – | human, phase I, plasma | intravenous, 930 mg/m^2, day 1, monotherapy | – | AUC | 105 µM·h
